Results of several laboratories.
A part holds a random share of what one study measured.

Sample 1 — technique: universal PBM; form: double-stranded DNA, one strand shown; matrix: in vitro; concentration: not given; direction: higher = stronger binding
Target: Sal-like protein 4, full length isoform B (SALL4, Homo sapiens, UniProt Q9UJQ4-2, residues 1-616)
Notes: 8-mer, flanks averaged, mean of replicates
| Strand | E-score |
| --- | --- |
| AGAGTCGA | -0.184 |
| CAGTCCTA | 0.00403 |
| GCTCGCCC | -0.335 |
| GAATCCCC | -0.297 |

Sample 2 — technique: protein-binding microarray; form: double-stranded DNA, one strand shown; matrix: in vitro; concentration: 940 nM top; notes: 60-bp whole probe; added: salmon DNA 0.4 mg/ml; reference: random background probes; direction: higher = stronger binding
Target: Interferon regulatory factor 5, full length, phosphomimetic (IRF5, Homo sapiens, UniProt Q13568-2, residues 1-514, S451D/S453D/S456D/S462D)
| Strand | fitted relative affinity [z-score] |
| --- | --- |
| GCCTAGCACGACGGTTTCCTTTCACTGACGTGCTAGGTCTTGATTCGCTTGACGCTGCTG | 2.3 |
| GCCTAGCACTTAGAACCGGGGTTTCGATTAGTGCTAGTCTTGATTCGCTTGACGCTGCTG | 5.61 |
| GCCTAGCACGCCGGTATCGACACTGGGGACGTGCTAGTCTTGATTCGCTTGACGCTGCTG | 4.4 |
| GCCTAGCACTTAGGTTTCCTTTTCGTTTAGTGCTAGGTCTTGATTCGCTTGACGCTGCTG | 2.81 |

Further values, each from its own experiment
Fmr1 C-terminal low-complexity region: Fragile X messenger ribonucleoprotein 1, C-terminal low-complexity region (Fmr1, Mus musculus, UniProt P35922)
| Molecule | target | test | test system | setting | how to read | quantity | value |
| --- | --- | --- | --- | --- | --- | --- | --- |
| GGGAGUUCUACAGUCCGACGAUCUAGUGAUGGUCCUAAAUAGCAUGAGUGUCAGCUGGAGCGCCCGGAUCCAGAUUUUCUUAACCUUUUGCAAGCUCACAGCAAUUCUGAUAAUGGAAUUCUCGGGUGUCAAGG | Fmr1 C-terminal low-complexity region | RNA Bind-n-Seq | RNA, in vitro | 200 nM, whole 134-nt RNA, ends assumed, added: 150 mM KCl | reference: input library, higher = stronger binding | log2 enrichment | -0.558 |
| PhoQ, residues 284 288 289 292 302 303 GASLAW | PhoP, residues 12 14 15 18 19 LHHVQ (Escherichia coli, UniProt P23836) | Sort-seq, measured: YFP reporter | E. coli | PhoQ-PhoP variant library, added: 10 µM Mg2+ | reference: high Mg2+ state, higher = stronger signaling | fold induction | 9.43 |
| GGGAGUUCUACAGUCCGACGAUCGUCCUGUGCUACACAUCGUAUGUACCGAAUCGGGGAAAAAAAGGGGAGGGGUUUGGGGAAAGUAUUAUGUUACGCCGUUCGGAUCUGCACUGGAAUUCUCGGGUGUCAAGG | Fmr1 C-terminal low-complexity region | RNA Bind-n-Seq | RNA, in vitro | 200 nM, whole 134-nt RNA, ends assumed, added: 150 mM KCl | reference: input library, higher = stronger binding | log2 enrichment | 0.34 |
| GGGAGUUCUACAGUCCGACGAUCCAAGUCCUGUGCUACACAUCGUAUGUACCGAAUCGGGAGGGAGGGAAAAAAAGGGAAAGUAUUAUGUUACGCCGUUCGGAUCUGCACUUCUGGAAUUCUCGGGUGUCAAGG | Fmr1 C-terminal low-complexity region | RNA Bind-n-Seq | RNA, in vitro | 200 nM, whole 134-nt RNA, ends assumed, added: 150 mM KCl | reference: input library, higher = stronger binding | log2 enrichment | 0.403 |

Excerpt of the above (sample 1):
| Strand | E-score |
| --- | --- |
| GCTCGCCC | -0.335 |
